Assay results pooled from the literature.
Parts stem from different laboratories: compare values within a part only. Several values in a cell are separate wells, animals, samples, runs or records.
UniProt Q7KZI7, sequence (whole entry, looked up): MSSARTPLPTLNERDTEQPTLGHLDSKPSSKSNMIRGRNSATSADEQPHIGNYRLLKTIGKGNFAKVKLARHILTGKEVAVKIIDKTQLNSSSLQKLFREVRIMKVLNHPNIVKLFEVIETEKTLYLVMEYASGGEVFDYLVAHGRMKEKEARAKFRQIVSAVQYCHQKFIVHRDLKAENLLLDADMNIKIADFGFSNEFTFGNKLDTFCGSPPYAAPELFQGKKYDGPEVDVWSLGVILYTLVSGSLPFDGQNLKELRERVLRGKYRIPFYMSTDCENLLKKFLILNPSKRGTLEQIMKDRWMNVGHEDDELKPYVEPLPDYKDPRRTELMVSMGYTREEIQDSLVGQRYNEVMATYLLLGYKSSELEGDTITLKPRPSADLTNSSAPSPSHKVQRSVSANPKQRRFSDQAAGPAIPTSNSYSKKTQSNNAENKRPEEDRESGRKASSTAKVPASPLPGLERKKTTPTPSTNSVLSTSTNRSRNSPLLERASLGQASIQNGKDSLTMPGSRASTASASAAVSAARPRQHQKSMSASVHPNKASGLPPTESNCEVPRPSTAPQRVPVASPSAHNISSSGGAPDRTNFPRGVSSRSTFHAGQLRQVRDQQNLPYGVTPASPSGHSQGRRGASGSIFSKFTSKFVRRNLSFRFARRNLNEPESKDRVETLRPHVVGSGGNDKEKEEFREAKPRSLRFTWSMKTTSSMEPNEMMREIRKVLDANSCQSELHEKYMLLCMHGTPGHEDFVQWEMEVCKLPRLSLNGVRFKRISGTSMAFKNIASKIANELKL
UniProt O75676, sequence (whole entry, looked up): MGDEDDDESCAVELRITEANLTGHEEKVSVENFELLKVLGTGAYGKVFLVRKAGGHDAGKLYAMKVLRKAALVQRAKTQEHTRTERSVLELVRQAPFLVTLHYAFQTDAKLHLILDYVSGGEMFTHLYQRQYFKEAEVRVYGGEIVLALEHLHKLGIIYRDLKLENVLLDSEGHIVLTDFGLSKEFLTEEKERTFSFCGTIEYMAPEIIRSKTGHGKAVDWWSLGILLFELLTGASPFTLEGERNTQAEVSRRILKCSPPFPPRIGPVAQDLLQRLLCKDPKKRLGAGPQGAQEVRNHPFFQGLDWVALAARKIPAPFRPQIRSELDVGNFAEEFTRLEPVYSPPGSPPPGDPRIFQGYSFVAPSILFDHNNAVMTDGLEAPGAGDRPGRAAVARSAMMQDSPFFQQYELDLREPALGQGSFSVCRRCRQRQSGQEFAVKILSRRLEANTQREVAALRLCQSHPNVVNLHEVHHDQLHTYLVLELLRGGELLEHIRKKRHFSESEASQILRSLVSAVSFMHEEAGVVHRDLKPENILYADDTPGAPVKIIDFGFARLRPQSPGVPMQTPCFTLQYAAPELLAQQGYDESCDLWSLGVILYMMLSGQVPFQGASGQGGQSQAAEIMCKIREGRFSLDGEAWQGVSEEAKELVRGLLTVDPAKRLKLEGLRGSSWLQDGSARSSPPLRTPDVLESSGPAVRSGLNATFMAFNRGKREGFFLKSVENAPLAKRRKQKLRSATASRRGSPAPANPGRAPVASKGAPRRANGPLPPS
UniProt O43293, sequence (whole entry, looked up): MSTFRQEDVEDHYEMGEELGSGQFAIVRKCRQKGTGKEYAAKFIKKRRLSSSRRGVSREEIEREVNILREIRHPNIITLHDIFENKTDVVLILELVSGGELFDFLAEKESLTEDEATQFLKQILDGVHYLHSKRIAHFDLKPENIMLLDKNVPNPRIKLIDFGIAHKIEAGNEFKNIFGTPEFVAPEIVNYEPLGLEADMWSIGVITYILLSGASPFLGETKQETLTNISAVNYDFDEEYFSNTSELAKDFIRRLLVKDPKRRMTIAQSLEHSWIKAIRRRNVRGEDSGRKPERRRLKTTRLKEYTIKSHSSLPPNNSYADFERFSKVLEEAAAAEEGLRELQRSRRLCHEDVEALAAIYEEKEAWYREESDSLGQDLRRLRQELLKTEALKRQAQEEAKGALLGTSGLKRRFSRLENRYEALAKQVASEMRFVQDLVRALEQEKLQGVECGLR
UniProt P06493, sequence (whole entry, looked up): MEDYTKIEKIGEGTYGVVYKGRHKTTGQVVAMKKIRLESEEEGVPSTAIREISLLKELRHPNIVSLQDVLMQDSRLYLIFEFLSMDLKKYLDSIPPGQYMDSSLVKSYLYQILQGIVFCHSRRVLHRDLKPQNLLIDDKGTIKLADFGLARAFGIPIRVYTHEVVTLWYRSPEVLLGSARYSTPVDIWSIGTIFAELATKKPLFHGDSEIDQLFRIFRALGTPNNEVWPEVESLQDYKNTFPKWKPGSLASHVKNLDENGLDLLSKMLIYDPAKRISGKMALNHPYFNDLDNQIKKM

Block 1 — SMILES: O=C1NC(=O)/C(=C/c2ccc3c(c2)OC(F)(F)O3)S1; observed: enzyme activity; action: inhibitor; tested at: 0.5 µM; reference: control
| target | remaining activity |
| --- | --- |
| MARK4 (Homo sapiens, UniProt Q96L34) | 97.8% |
| MAPK11 (Homo sapiens, UniProt Q15759) | 95.7% |
| PRKG2 (Homo sapiens, UniProt Q13237) | 104% |
| KDR (Homo sapiens, UniProt P35968) | 94.6% |
| Myosin-IIIb (MYO3B, Homo sapiens, UniProt Q8WXR4) | 87.9% |
| TXK (Homo sapiens, UniProt P42681) | 95.4% |
| Cyclin-dependent kinase 1, with cyclin A (CDK1, Homo sapiens, UniProt P06493) | 97.2% |
| TLK2 (Homo sapiens, UniProt Q86UE8) | 104% |
| PLK3 (Homo sapiens, UniProt Q9H4B4) | 92.4% |
| MARK2 (Homo sapiens, UniProt Q7KZI7) | 96.8% |
| PAK3 (Homo sapiens, UniProt O75914) | 93.1% |
| RPS6KA4 (Homo sapiens, UniProt O75676) | 108% |
| MAPK14 (Homo sapiens, UniProt Q16539) | 86.7% |
| DCLK2 (Homo sapiens, UniProt Q8N568) | 99.7% |
| ROCK1 (Homo sapiens, UniProt Q13464) | 93.7% |

Block 2 — observed: enzyme activity; action: inhibitor; tested at: 77 µM; reference: untreated
Target: DNA polymerase theta, ATPase domain (POLQ, Homo sapiens, UniProt O75417)
UniProt O75417, sequence (whole entry, unmodified, looked up): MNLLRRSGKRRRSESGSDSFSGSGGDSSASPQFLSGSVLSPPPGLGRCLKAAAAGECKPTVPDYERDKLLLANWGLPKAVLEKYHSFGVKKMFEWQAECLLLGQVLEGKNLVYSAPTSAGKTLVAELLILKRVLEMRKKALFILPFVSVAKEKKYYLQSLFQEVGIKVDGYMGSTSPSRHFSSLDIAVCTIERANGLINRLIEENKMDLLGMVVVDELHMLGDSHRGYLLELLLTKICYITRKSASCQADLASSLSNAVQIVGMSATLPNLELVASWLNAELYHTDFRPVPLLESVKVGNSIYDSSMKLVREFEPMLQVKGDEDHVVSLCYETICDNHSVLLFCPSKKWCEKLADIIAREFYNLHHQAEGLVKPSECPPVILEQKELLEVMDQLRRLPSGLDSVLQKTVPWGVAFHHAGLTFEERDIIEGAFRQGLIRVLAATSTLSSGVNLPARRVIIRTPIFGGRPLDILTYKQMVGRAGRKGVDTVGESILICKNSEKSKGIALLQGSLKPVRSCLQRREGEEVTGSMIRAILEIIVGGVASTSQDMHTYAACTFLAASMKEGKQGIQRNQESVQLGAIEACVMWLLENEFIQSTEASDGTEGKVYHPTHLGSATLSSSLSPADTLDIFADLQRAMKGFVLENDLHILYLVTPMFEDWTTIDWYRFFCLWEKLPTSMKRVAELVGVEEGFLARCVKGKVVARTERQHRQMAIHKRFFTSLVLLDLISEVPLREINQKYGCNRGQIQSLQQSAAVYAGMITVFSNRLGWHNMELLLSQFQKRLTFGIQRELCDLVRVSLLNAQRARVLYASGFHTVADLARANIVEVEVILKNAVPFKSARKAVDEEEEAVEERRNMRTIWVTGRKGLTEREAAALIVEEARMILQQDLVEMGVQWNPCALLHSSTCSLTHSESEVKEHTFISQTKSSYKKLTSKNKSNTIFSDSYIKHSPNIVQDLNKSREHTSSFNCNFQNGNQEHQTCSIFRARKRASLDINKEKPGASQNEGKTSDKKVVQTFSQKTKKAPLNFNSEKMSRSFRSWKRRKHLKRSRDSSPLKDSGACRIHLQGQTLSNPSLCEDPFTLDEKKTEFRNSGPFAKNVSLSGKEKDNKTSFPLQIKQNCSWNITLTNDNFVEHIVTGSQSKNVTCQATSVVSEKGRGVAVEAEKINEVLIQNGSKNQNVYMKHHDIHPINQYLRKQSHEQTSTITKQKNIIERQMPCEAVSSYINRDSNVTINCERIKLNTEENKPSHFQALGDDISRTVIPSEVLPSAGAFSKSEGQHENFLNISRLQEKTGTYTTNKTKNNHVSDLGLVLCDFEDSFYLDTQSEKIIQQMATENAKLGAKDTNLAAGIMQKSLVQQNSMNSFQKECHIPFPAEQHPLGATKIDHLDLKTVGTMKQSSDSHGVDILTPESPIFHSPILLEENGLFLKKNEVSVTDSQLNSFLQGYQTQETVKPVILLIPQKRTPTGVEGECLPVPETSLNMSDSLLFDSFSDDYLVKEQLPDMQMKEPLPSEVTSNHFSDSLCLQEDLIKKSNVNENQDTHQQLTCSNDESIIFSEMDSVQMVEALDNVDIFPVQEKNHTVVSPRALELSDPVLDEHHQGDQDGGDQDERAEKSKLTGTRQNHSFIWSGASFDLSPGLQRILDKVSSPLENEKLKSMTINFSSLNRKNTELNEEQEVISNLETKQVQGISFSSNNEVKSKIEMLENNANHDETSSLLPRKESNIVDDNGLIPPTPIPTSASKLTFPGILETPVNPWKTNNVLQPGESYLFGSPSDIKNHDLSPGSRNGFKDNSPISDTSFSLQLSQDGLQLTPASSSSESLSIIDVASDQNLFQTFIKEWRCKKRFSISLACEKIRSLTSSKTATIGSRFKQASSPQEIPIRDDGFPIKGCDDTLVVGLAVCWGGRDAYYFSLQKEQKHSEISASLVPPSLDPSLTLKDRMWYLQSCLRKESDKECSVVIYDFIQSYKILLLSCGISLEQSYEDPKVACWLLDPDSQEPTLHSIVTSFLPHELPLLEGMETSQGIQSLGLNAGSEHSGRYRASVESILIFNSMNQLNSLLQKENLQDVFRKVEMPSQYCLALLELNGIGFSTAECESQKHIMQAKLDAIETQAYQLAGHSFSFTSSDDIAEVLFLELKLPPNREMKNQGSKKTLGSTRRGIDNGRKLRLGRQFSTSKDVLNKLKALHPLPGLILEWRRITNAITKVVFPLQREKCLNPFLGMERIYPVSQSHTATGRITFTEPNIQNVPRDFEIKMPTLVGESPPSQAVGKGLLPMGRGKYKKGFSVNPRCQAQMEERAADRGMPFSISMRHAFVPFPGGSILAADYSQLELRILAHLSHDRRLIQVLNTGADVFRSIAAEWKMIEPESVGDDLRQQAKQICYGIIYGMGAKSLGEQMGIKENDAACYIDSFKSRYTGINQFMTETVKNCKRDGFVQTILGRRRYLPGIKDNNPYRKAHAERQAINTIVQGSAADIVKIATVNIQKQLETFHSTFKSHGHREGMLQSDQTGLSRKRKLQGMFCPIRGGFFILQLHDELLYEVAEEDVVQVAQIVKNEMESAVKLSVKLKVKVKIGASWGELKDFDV
| Structure (SMILES) | remaining activity |
| --- | --- |
| CC1CCN=C(N)S1 (stereo not shown) | 97.6% |
| CC1CC(OC(=O)C(O)c2ccccc2)CC(C)(C)C1 (stereo not shown) | 98.2% |
| CCOCC(O)COc1ccc(NC(=O)CC[S+](C)C)cc1 (stereo not shown) | 97.1% |
| C=CC(=O)Nc1cc2c(Nc3ccc(F)c(Cl)c3)ncnc2cc1OCCCN1CCOCC1 | 106% and 110% and 111% |
| N#C/C(=C\c1ccc(O)c(O)c1)C(=O)NCCCNC(=O)/C(C#N)=C/c1ccc(O)c(O)c1 | 90.3% |
| CN(C)CC/C=C1\c2ccccc2CSc2ccccc21 | 143% |
| C=CC[C@@H]1/C=C(\C)C[C@H](C)C[C@H](OC)[C@H]2O[C@@](O)(C(=O)C(=O)N3CCCC[C@H]3C(=O)O[C@H](/C(C)=C/[C@@H]3CC[C@@H](O)[C@H](OC)C3)[C@H](C)[C@@H](O)CC1=O)[C@H](C)C[C@@H]2OC | 99.8% |

Block 3 — observed: cell-free assay; method: competition with immobilised ligand; tested at: 1 µM
Structure (SMILES): CCC(=O)N[C@@H]1CC[C@H](C(=O)N(C)c2ccc(-c3nc4ccccc4o3)cc2)C1
| target | remaining binding |
| --- | --- |
| Tyrosine-protein kinase JAK1, JH1 (JAK1, Homo sapiens, UniProt P23458) | 100% |
| DAPK3 (Homo sapiens, UniProt O43293) | 100% |
| PTK2B (Homo sapiens, UniProt Q14289) | 100% |
| NUAK1 (Homo sapiens, UniProt O60285) | 100% |
| MARK2 (Homo sapiens, UniProt Q7KZI7) | 100% |
| ABL2 (Homo sapiens, UniProt P42684) | 100% |
| FLT3 (Homo sapiens, UniProt P36888) | 89% |
| ULK2 (Homo sapiens, UniProt Q8IYT8) | 100% |

Block 4 — sample: plasma; route: oral
SMILES: COc1ccc(-c2c(Nc3ccccn3)[nH]c3c(C4=CCCCC4)c(-c4ccccc4)nn3c2=O)cc1
| test | system | conditions | plasma concentration, mean |
| --- | --- | --- | --- |
| – | human patients | 400 mg once daily, 0.5 h, cycle 1 | 3280 ng/mL |
| LC-MS/MS | human | 200 mg twice daily, 4 h | 11100 ng/mL |
| – | cancer patients | 150 mg, 3 h post-dose, single dose | 1460 ng/mL |
| – | cancer patients | 100 mg, 2 h post-dose, single dose | 985 ng/mL |
| – | cancer patients | 200 mg, 4 h post-dose, single dose | 1450 ng/mL |
| – | human patients | 100 mg once daily, 8 h, cycle 1 | 3710 ng/mL |
| LC-MS/MS | human | 200 mg twice daily, 0.5 h, single dose | 118 ng/mL |

Some of these lines once more (block 2):
| Structure (SMILES) | remaining activity |
| --- | --- |
| CCOCC(O)COc1ccc(NC(=O)CC[S+](C)C)cc1 (stereo not shown) | 97.1% |
| N#C/C(=C\c1ccc(O)c(O)c1)C(=O)NCCCNC(=O)/C(C#N)=C/c1ccc(O)c(O)c1 | 90.3% |
| CN(C)CC/C=C1\c2ccccc2CSc2ccccc21 | 143% |
| CC1CC(OC(=O)C(O)c2ccccc2)CC(C)(C)C1 (stereo not shown) | 98.2% |
| C=CC(=O)Nc1cc2c(Nc3ccc(F)c(Cl)c3)ncnc2cc1OCCCN1CCOCC1 | 106% and 110% and 111% |
